Measurements collected from several papers.
Each line is one published result; not all experiments were run side by side. ± marks the error that the study gave.
Organism: Staphylococcus aureus

CN1CC(=O)N=C1N.C[C@H](CCC(=O)O)[C@H]1CC[C@H]2[C@@H]3CC[C@@H]4C[C@H](O)CC[C@]4(C)[C@H]3C[C@H](O)[C@]12C — inhibition zone diameter (TISTR 746; 1 mg per disc, 18 to 24 h, 37 °C, 6 mm disc): 11.5 ± 1.8 mm
NCCCC[C@H](NC(=O)[C@H](CCCCN)NC(=O)[C@H](Cc1ccccc1)NC(=O)[C@@H]1CCCN1C(=O)[C@H](Cc1c[nH]c2ccccc12)NC(=O)[C@H](Cc1c[nH]c2ccccc12)NC(=O)[C@H](Cc1c[nH]c2ccccc12)NC(=O)[C@@H]1CCCN1C(=O)[C@H](Cc1ccccc1)NC(=O)[C@H](CCCCN)NC(=O)[C@@H](N)CCCCN)C(N)=O — LC99.9 (MRSA AMC 201, RPMI medium; 24 h, 37 °C): 30 µM
S=C(NCc1ccccn1)NCc1ccccn1 — inhibition zone (microbial growth, well diffusion; 30 µg/mL): 23 mm
C=Cc1cc(OC)c2c(c1)c(=O)oc1c2cc(OC)c2c(O)ccc([C@@H]3O[C@H](C)[C@H](O)[C@@](C)(O)[C@H]3O)c21 — biofilm reduction (crystal violet; USA300; 0.25 µg/mL, 0.5 x MIC): 58%
N#Cc1ccccc1Oc1ccc(Cl)cc1O — post-antibiotic effect (RN4220; 4 x MIC, 1 h exposure, 37 °C): 0.91 ± 0.11 h
CC[C@H](C)[C@H](NC(=O)[C@H](CCCCN)NC(=O)[C@H](CCCCN)NC(=O)[C@H](CC(C)C)NC(=O)[C@H](CCCCN)NC(=O)[C@H](CCC(=O)O)NC(=O)[C@H](CCCCN)NC(=O)[C@@H](NC(=O)[C@H](CCCCN)NC(=O)[C@H](CC(N)=O)NC(=O)[C@H](CCCNC(=N)N)NC(=O)[C@H](Cc1ccccc1)NC(=O)[C@H](CCCCN)NC(=O)[C@H](CCCNC(=N)N)NC(=O)[C@H](CC(C)C)NC(=O)[C@H](CCCNC(=N)N)NC(=O)[C@H](CCCCN)NC(=O)[C@H](CCCNC(=N)N)NC(=O)[C@@H](N)CC(C)C)[C@@H](C)CC)C(=O)NCC(=O)N[C@@H](CCC(N)=O)C(=O)N[C@@H](CCCCN)C(=O)N[C@H](C(=O)N[C@@H](CCC(N)=O)C(=O)NCC(=O)N[C@@H](Cc1ccccc1)C(=O)N[C@H](C(=O)N1CCC[C@H]1C(=O)N[C@@H](CCCCN)C(=O)N[C@@H](CC(C)C)C(=O)O)C(C)C)[C@@H](C)CC — lethal concentration (inhibition zone; MRSA P1374): 1.46 µM
CC(=O)N[C@H]1CNC(=O)[C@H](Cc2ccccc2)NC(=O)[C@H](Cc2ccccc2)NC(=O)COCCOCCNC1=O — AgrC activity (reporter gene; AH1677; 10 µM; reference: DMSO): inactive
CC[C@@](C)(NC)C(=O)NC(C)(C)C(=O)NC(C)(C)C(=O)NC(C)(C)C(=O)NCC(=O)NC(C)(C)C(=O)N1CCC[C@@H]1C(=O)N[C@@H](Cc1c[nH]c2ccccc12)C(=O)NC(C)(C)C(=O)N1C[C@H](O)C[C@@H]1C(=O)N[C@@H](C)C(=O)NC(C)(C)C(=O)NCCCC(=O)N[C@@H](CC(C)C)C(=O)N[C@](C)(CC)C(=O)NC(C)(C)C(=O)N[C@](C)(CC)C(=O)N[C@H](CO)Cc1ccccc1 — total ATP level (ATCC 29213; 1, 5, 10 µg/mL, 1 h, 37 °C): decreased
C[C@@H](c1ccccc1)N(CC(N)=O)C(=O)CN(C(=O)CN(CCCCN)C(=O)CN(C(=O)CN(C(=O)CN(CCCCN)C(=O)CN(C(=O)CN(C(=O)CN(CCCCN)C(=O)CN(C(=O)CN(C(=O)CNCCCCN)[C@@H](C)c1ccccc1)[C@@H](C)c1ccccc1)[C@@H](C)c1ccccc1)[C@@H](C)c1ccccc1)[C@@H](C)c1ccccc1)[C@@H](C)c1ccccc1)[C@@H](C)c1ccccc1 — bacterial load (USA300 LAC, mouse, abscess model; maximum tolerated dose, day three): 49000 CFU/mL

For quick reference, copied from above:
N#Cc1ccccc1Oc1ccc(Cl)cc1O — post-antibiotic effect (RN4220; 4 x MIC, 1 h exposure, 37 °C): 0.91 ± 0.11 h
